Measurements of several laboratories.
Compare with care: the assays were run in different laboratories. ± marks the error that the study gave.

| SMILES | assay | system | setting | how to read | measurement | result |
| --- | --- | --- | --- | --- | --- | --- |
| Cc1nc2cccc(OCC(C)(C)C(=O)NC(C)C)c2c(N)c1C(=O)O |  | female Sprague-Dawley rat, plasma | intravenous, 1 mg/kg, single dose |  | AUC(0-t) | 412 ng·h/mL |
| NC(=O)OCC(COC(N)=O)c1ccccc1 |  | Sprague-Dawley rat, male, liver | oral, 300 mg/kg, 24 h, single low dose | direction not given | hepatocyte necrosis score | 0 |
| CCOc1ccc(Cc2cc([C@@H]3S[C@H](CO)[C@@H](O)[C@H](O)[C@H]3O)c(OC)cc2C)cc1 |  | Wistar rat, male, small intestine | oral, dose not given, 1 h | relative to: small intestine over plasma concentration | tissue/plasma ratio | 251 ± 178 |
| CCCCCCCCCCCCOP1(=O)CO[C@@H](Cn2ccc(N)nc2=O)CO1 (some centres unmarked) |  | n-octanol/DPBS | 24 h, pH 7.4, 37 °C |  | logP | 3.89 ± 1.23 |
| Cc1ccc(NC(=O)c2ccc(CN3CCN(C)CC3)cc2)cc1Nc1nccc(-c2cncc(-c3oncc3C)c2)n1 |  | Parkinson's disease patients, plasma | oral, 100 mg once daily, day 1, 7-day dosing, mean |  | dose-normalised AUC(0-inf) | 687 ng·h/mL/mg |
| Cn1cnc2c(F)c(Nc3ccc(Br)cc3Cl)c(C(=O)NOCCO)cc21 |  | human, hepatic impairment and healthy | oral, 50 mg |  | subjects with related adverse events | 6.3% |
| Cc1cc(Oc2cncnc2)cc(C(=O)Nc2ccc(F)cn2)n1 |  | Sprague-Dawley rat, male, plasma | oral, 10 mg/kg, 1 h |  | unbound plasma concentration | 318 nM |
| CC(C)=CCC[C@](C)(O[C@@H]1O[C@H](CO)[C@@H](O)[C@H](O)[C@H]1O)[C@H]1CC[C@]2(C)[C@@H]1[C@H](O)C[C@@H]1[C@@]3(C)CC[C@H](O)C(C)(C)[C@@H]3[C@@H](O[C@@H]3O[C@H](CO)[C@@H](O)[C@H](O)[C@H]3O)C[C@]12C |  | rat, extracted plasma QC samples | 2.0 µg/mL, 24 h, 15 °C, autosampler |  | post-preparative stability accuracy | 94.8 ± 7.5% |
| CC(C)NC[C@@H](C(=O)N1CCN(c2ncnc3c2[C@H](C)C[C@H]3O)CC1)c1ccc(Cl)cc1 |  | human, hepatic impairment Moderate (Child-Pugh), plasma | oral, 100 mg single, geometric mean |  | AUC(0-72) | 555 ng·h/mL |
| CCN(CC)CCNC(=O)c1c(C)[nH]c(/C=C2\C(=O)Nc3ccc(F)cc32)c1C |  | human, plasma | oral, 15 mg/m2, day 14 |  | minimum trough plasma concentration | 11.9 ng/mL |
| CCCSc1nc(N[C@@H]2C[C@H]2c2ccc(F)c(F)c2)c2nnn([C@@H]3C[C@H](OCCO)[C@@H](O)[C@H]3O)c2n1 |  | male Wistar Han rats, plasma | oral, 60 mg/kg/day, week 52, carcinogenicity study |  | AUC | 129 µM·h |
| CC(C)=CCC[C@](C)(O[C@@H]1O[C@H](CO)[C@@H](O)[C@H](O)[C@H]1O)[C@H]1CC[C@]2(C)[C@@H]1[C@H](O)C[C@@H]1[C@@]3(C)CC[C@H](O)C(C)(C)[C@@H]3[C@@H](O[C@@H]3O[C@H](CO)[C@@H](O)[C@H](O)[C@H]3O[C@@H]3O[C@@H](C)[C@H](O)[C@@H](O)[C@H]3O)C[C@]12C |  | Sprague Dawley rat, male, plasma | oral, 45 mg/kg, in red ginseng extract |  | AUC(0-36 h) | 6400 ± 1400 ng·h/mL |
| CCCC[C@H](NC(C)=O)C(=O)N[C@H]1CCC(=O)NC[C@@H](C(=O)N[C@@H](Cc2c[nH]c3ccccc23)C(N)=O)NC(=O)[C@H](CCCNC(=N)N)NC(=O)[C@@H](Cc2ccccc2)NC(=O)[C@H](Cc2c[nH]cn2)NC1=O |  | beagle dog, female, plasma | subcutaneous, 40.0 mg/kg daily, day 1 |  | Tmax | 0.56 h |
| COc1ccc(-c2oc3c(OC)c(OC)c(OC)c(OC)c3c(=O)c2OC)cc1OC |  | C57BL/6 mouse, male, feces | oral, 1% w/w in diet, 6 weeks, orange peel extract diet | relative to: content in orange peel | tissue to peel content ratio | 81.7% |
| CC(C)C[C@H]1C(=O)N2CCC[C@H]2[C@]2(O)O[C@](NC(=O)[C@@H]3C=C4c5cccc6[nH]c(Br)c(c56)C[C@H]4N(C)C3)(C(C)C)C(=O)N12 |  | male Sprague-Dawley rats, plasma | intravenous, 0.1 mg/kg, together with: DAL 1.7 mg/kg plus HAL 0.7 mg/kg |  | mean residence time | 0.578 ± 0.113 h |
| C[C@]12CC[C@@H]3c4ccc(O)cc4CC[C@H]3[C@@H]1C[C@@H](O)[C@@H]2O | GC-MS | breast cancer women on NSAI, serum | vaginal, 0.03 mg daily, 2 h, day 28 |  | median serum concentration | 0 ng/mL |
| Cc1ccc(-c2ncc(Cl)cc2-c2ccc(S(C)(=O)=O)cc2)cn1 |  | hip replacement patients, plasma | oral, 120 mg at 0 h and 24 h |  | AUC(0-48 h) | 61000 ng·h/mL |
| CN[C@H](CC(C)C)C(=O)N[C@H]1C(=O)N[C@@H](CC(N)=O)C(=O)N[C@H]2C(=O)N[C@H]3C(=O)N[C@H](C(=O)N[C@H](C(=O)O)c4cc(O)cc(O)c4-c4cc3ccc4O)[C@H](O)c3ccc(c(Cl)c3)Oc3cc2cc(c3O[C@@H]2O[C@H](CO)[C@@H](O)[C@H](O)[C@H]2O[C@H]2C[C@](C)(N)[C@H](O)[C@H](C)O2)Oc2ccc(cc2Cl)[C@H]1O | microdialysis | pig, Danish Landrace, cancellous bone | intravenous, 1000 mg over 100 min, 450 min dosing interval, together with: 2.0 µg/mL MIC | relative to: dosing interval | time above MIC | 84% |
| COc1cccc2c1C(=O)c1c(O)c3c(c(O)c1C2=O)C[C@@](O)(C(=O)CO)C[C@@H]3O[C@H]1C[C@H](N)[C@H](O)[C@H](C)O1 |  | mouse, E0771 tumour-bearing, heart | intravenous, 92 µmol/kg |  | terminal half-life | 34 h |
| COC(=O)C[C@](O)(CCCC(C)(C)O)C(=O)O[C@@H]1C(OC)=C[C@]23CCCN2CCc2cc4c(cc2[C@H]13)OCO4 |  | CD1 mouse, liver | oral, 1 mg/kg, 24 h, below quantification limit 1.00 ng/mL |  | tissue concentration | not detected |
| CCOc1ccc(NC(=S)N(CCO)Cc2cc3cc(C)cc(C)c3[nH]c2=O)cc1 |  | C57BL/6J mouse, plasma | oral, 3 mg/kg, together with: ABT 50 mg/kg oral pretreatment 2 h before |  | AUC(0-24 h) | 4340 ng·h/mL |
| C#C[C@]1(CO)O[C@@H](n2cnc3c(N)nc(F)nc32)C[C@@H]1O |  | human, plasma | oral, 100 mg, single dose, fasted |  | AUC(0-t) | 10.9 µM·h |

| SMILES | assay | system | setting | how to read | measurement | result |
| --- | --- | --- | --- | --- | --- | --- |
| CC1(C)C2CCC1(C)C(OC(=O)C(O)Cc1ccc(O)c(O)c1)C2 (centres unmarked) |  | Sprague-Dawley rat, plasma | intravenous, 6 mg/kg |  | AUC(0-inf) | 392 ng·h/mL |
| COc1c(O)cc2oc3cc(O)cc(O)c3c(=O)c2c1C/C=C(\C)CCC=C(C)C | UHPLC, non-compartmental | mice, plasma | oral, 700 mg/kg, virgin coconut oil suspension |  | AUC(24 h-inf) | 420 ± 160 ng·h/mL |
| CNCc1ccc(-c2[nH]c3cc(F)cc4c3c2CCNC4=O)cc1 |  | human cancer patients, plasma | intravenous, 18 mg/m2, day 4, together with: temozolomide 200 |  | volume of distribution | 343 L |
| Nc1ccn([C@@H]2O[C@H](CO)[C@@H](O)C2(F)F)c(=O)n1 |  | THU-treated rat plasma | 3200.00 ng/mL, 2 months, -80 °C, frozen storage, high QC |  | measured concentration | 3195 ± 15.4 ng/mL |
| CNCc1ccc(-c2[nH]c3cc(F)cc4c3c2CCNC4=O)cc1 |  | human, plasma | oral, 600 mg twice daily, steady state, mean |  | AUC(0-12 h) | 16900 ng·h/mL |
| NCCN[C@H]1CC[C@H](CC(=O)N[C@H]2Cc3cccc(C(=O)O)c3OB2O)CC1 |  | humans | intravenous infusion, dose not given, 8 h after third infusion start |  | epithelial lining fluid concentration | 0.3 mg/L |
| CC(C)CC(=O)NCC(=O)O | untargeted mass spectrometry | human normal subjects, plasma ultrafiltrate |  |  | unbound fraction in plasma | 30 ± 6% |
| COc1ccc(-c2cc(=O)c3c(OC)c(OC)c(OC)c(OC)c3o2)cc1 |  | C57BL/6 mouse, male, feces | oral, 1% w/w in diet, 6 weeks, orange peel extract diet | relative to: content in orange peel | tissue to peel content ratio | 86.2% |
| Cn1c(-c2ccc(C(N)=O)cc2F)nnc1C(C)(C)Oc1c(F)cc(Cl)cc1F |  | healthy young Japanese subjects, plasma | oral, 10 mg once daily, day 18, 14 days dosing |  | Tmax range | 1 to 4 h |
| O=C(O)c1cccc(CN2CN(C3CCCCC3)C3(CCN(CCCC(=O)c4ccccc4)CC3)C2=O)c1 |  | human healthy adults, plasma | dose not given, 24 h |  | subjects below LLOQ | 50% |
| C[C@H]1CO[C@@H]2Cn3cc(C(=O)NCc4ccc(F)cc4F)c(=O)c(O)c3C(=O)N12 | Holter monitoring | healthy human subjects | oral, 150 mg every 12 h for 3 doses, 8 h | relative to: placebo | maximum ΔΔQTcF | 2.62 ± 1.59 ms |
| Cc1cc(-c2ccn3c(-c4ccc(CC(=O)Nc5cccc(C(F)(F)F)c5)c(F)c4)cnc3c2)ccn1 |  | human, plasma | oral, 50 mg once daily, multiple doses |  | Tlast | 8 h |
| CC(NC(C)(C)C)C(=O)c1cccc(Cl)c1 (centres unmarked) | dual placental perfusion | fetal circuit perfusate | 150 ng/mL, 4 h | relative to: initial maternal | fetal concentration | 24 ± 3% |
| CN1CC[C@@H](NC(=O)Nc2ccc(C#N)cc2)C[C@@H]1c1nc2ccccc2[nH]1 |  | human, severe hepatic impairment, plasma | oral, 100 mg, single dose, fasted |  | unbound Cmax | 73.3 ± 36.8 ng/mL |
| CCCCCCCC/C=C\CCCCCCCC(=O)O[C@H](COC(=O)CCCCCCCCCCCCCCC)COP(=O)([O-])OCC[N+](C)(C)C | dynamic light scattering | lipid vesicles | 1.0 mg/mL, 25 °C, 1:1 wt/wt, 24 h at 50 °C |  | particle size | 10.4 nm |
| CC(C)C[C@H](NC(=O)[C@H](CC(C)C)NC(=O)[C@@H](Cc1c[nH]c2ccccc12)NC(=O)[C@@H](NC(=O)[C@@H](Cc1csc2ccccc12)NC(=O)[C@@H](N)CCCCN)[C@H](c1ccccc1)c1c[nH]c2ccccc12)C(N)=O | RP-HPLC Kinetex Biphenyl |  | acetonitrile/water TFA gradient |  | HPLC retention | 50.7 %B |
| CC[C@H](C)[C@@H]1NC(=O)[C@H](Cc2ccc(O)cc2)NC(=O)[C@@H](N)CSSC[C@@H](C(=O)N2CCC[C@H]2C(=O)N[C@@H](CC(C)C)C(=O)NCC(N)=O)NC(=O)[C@H](CC(N)=O)NC(=O)[C@H](CCC(N)=O)NC1=O | ELISA | knock-out male mice lacking compound, plasma | intraperitoneal, 12 µg total, incremental area over baseline |  | AUC above baseline | 12000 ± 1950 pg·30 min/sample |
| Cc1cccc(C)c1OCC(=O)N[C@@H](Cc1ccccc1)[C@@H](O)C[C@H](Cc1ccccc1)NC(=O)[C@H](C(C)C)N1CCCNC1=O | modified PAMPA Franz cell | phosphate buffer with HPMCAS | stock 20 mg/mL, 3 h, 25 °C, 839 nm particles, 300 rpm, together with: 3% BSA receiver |  | particle permeability | 1.6 ± 0.1 ×10⁻⁶ cm/s |
| COc1cc2c(cc1OC)[C@@H]1Cc3ccc(OC)c(OC)c3CN1CC2 |  | rat plasma QC sample | 2 ng/mL nominal, 24 h, 23 °C, low QC level storage stability |  | measured concentration | 2 ± 0.11 ng/mL |
| CC(C)C[C@@H]1NC(=O)CN(C)C(=O)[C@H](Cc2ccccc2)NCc2ccc(n2C)CNC1=O |  | PAMPA | 100 µM, 17 h, pH 6.4 |  | Papp | 1.17 ×10⁻⁶ cm/s |
| CC[N+]1(CC(=O)OC2CCCCCCCCCCC2)CCCCC1.[I-] | metabolic stability | human, liver microsomes | 1 µM, pH 7.4 |  | half-life | < 2 min |
| Oc1ccc(C(c2ccc(O)cc2)(C(F)(F)F)C(F)(F)F)cc1 |  | female Hsd:Sprague Dawley rats, plasma | intravenous, 34 mg/kg, free compound |  | beta half-life | 5.15 h |

Repeated from above:
| SMILES | assay | system | setting | how to read | measurement | result |
| --- | --- | --- | --- | --- | --- | --- |
| CC(C)CC(=O)NCC(=O)O | untargeted mass spectrometry | human normal subjects, plasma ultrafiltrate |  |  | unbound fraction in plasma | 30 ± 6% |
| COc1ccc(-c2cc(=O)c3c(OC)c(OC)c(OC)c(OC)c3o2)cc1 |  | C57BL/6 mouse, male, feces | oral, 1% w/w in diet, 6 weeks, orange peel extract diet | relative to: content in orange peel | tissue to peel content ratio | 86.2% |
| Cn1c(-c2ccc(C(N)=O)cc2F)nnc1C(C)(C)Oc1c(F)cc(Cl)cc1F |  | healthy young Japanese subjects, plasma | oral, 10 mg once daily, day 18, 14 days dosing |  | Tmax range | 1 to 4 h |
